Assay results from different studies.
Protocols differ between the studies behind these lines. Numbers after ± are the reported error.
SIRT3: NAD-dependent protein deacetylase sirtuin-3, mitochondrial (SIRT3, Homo sapiens, UniProt Q9NTG7)
UniProt Q9NTG7, sequence (whole entry, looked up): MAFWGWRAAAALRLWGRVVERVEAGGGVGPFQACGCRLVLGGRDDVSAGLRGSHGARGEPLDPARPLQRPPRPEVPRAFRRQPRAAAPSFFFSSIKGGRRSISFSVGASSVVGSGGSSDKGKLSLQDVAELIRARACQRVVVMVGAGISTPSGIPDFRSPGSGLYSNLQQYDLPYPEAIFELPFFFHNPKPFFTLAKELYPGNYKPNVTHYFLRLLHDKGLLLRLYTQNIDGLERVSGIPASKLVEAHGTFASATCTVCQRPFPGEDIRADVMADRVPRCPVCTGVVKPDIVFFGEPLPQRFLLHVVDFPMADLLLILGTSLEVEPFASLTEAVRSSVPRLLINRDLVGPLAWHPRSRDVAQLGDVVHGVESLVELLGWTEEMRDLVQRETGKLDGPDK
HTR1E: 5-hydroxytryptamine receptor 1E (HTR1E, Homo sapiens, UniProt P28566)
UniProt P28566, sequence (whole entry, looked up): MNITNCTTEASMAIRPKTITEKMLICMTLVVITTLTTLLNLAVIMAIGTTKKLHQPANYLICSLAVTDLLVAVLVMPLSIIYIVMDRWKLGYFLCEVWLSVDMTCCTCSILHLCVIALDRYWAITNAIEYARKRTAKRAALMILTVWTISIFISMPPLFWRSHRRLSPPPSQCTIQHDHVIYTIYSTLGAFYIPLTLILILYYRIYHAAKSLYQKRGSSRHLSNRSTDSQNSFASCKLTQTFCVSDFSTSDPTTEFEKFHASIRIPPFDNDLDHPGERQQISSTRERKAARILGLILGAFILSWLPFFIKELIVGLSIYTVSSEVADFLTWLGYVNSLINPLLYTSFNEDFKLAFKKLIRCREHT
F2: Prothrombin (F2, Homo sapiens, UniProt P00734)
SRPK3: SRSF protein kinase 3 (SRPK3, Homo sapiens, UniProt Q9UPE1)
UniProt Q9UPE1, sequence (whole entry, looked up): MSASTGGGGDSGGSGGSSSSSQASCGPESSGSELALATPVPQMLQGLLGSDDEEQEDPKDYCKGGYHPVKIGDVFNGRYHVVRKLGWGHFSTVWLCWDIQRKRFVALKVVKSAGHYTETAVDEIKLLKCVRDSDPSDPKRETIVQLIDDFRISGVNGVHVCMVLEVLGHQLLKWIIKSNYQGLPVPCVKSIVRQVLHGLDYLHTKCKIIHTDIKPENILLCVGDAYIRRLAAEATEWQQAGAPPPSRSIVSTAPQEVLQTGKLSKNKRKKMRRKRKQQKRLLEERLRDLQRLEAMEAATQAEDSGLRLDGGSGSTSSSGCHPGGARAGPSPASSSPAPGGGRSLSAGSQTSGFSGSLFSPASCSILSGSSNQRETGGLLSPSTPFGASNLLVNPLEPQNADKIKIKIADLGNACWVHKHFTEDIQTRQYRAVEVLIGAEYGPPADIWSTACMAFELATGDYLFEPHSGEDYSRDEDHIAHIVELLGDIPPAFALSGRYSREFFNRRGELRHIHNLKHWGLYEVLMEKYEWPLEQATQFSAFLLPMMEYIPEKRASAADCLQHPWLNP
HTR1B: 5-hydroxytryptamine receptor 1B (HTR1B, Homo sapiens, UniProt P28222)
UniProt P28222, sequence (whole entry, looked up): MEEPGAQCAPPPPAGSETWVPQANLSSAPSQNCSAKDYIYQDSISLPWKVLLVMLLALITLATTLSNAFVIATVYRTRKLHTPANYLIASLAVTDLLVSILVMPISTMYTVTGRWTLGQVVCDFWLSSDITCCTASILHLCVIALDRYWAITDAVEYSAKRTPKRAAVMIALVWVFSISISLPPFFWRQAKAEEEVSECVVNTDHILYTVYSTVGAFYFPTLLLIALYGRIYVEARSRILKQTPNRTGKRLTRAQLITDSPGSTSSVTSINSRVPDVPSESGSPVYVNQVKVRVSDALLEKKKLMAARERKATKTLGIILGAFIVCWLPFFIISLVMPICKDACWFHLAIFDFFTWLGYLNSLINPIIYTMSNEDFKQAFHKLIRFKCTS
AMY2: Pancreatic alpha-amylase (AMY2, Sus scrofa, UniProt P00690)
UniProt P00690, sequence (whole entry, looked up): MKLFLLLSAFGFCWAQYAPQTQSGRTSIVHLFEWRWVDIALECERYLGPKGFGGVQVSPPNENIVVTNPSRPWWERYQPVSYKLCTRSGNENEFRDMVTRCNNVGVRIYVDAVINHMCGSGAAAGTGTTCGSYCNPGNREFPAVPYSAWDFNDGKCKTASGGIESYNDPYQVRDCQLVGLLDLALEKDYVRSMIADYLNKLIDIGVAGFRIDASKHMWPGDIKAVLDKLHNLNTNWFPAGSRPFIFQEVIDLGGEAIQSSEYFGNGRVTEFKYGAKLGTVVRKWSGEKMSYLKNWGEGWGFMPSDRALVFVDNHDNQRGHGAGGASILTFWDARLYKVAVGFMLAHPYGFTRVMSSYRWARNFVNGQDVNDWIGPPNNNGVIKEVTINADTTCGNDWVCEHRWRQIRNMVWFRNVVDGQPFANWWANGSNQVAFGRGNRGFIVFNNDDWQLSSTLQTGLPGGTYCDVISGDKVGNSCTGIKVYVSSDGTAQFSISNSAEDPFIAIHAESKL
SIRT1: NAD-dependent protein deacetylase sirtuin-1 (SIRT1, Homo sapiens, UniProt Q96EB6)
UniProt Q96EB6, sequence (whole entry, looked up): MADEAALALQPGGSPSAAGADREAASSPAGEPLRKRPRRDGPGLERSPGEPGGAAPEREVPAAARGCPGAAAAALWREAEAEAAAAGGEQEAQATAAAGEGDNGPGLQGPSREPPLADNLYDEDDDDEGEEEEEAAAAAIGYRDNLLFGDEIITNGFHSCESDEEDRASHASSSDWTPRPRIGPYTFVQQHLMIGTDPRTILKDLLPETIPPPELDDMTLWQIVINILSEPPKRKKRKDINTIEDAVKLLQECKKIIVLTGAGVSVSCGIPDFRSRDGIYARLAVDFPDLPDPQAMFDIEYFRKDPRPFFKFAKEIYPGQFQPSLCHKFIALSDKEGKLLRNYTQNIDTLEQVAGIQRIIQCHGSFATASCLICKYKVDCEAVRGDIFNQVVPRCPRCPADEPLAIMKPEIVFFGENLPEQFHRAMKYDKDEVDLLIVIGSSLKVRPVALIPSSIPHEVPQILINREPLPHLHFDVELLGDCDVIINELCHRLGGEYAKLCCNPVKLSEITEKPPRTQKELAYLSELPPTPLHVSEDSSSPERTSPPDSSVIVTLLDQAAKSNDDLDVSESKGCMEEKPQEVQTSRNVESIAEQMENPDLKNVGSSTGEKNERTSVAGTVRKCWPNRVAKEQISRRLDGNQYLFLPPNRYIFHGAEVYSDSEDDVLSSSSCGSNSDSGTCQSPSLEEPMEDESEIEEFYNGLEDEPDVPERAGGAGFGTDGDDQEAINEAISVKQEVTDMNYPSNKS
UniProt Q4FZB7, sequence (whole entry, looked up): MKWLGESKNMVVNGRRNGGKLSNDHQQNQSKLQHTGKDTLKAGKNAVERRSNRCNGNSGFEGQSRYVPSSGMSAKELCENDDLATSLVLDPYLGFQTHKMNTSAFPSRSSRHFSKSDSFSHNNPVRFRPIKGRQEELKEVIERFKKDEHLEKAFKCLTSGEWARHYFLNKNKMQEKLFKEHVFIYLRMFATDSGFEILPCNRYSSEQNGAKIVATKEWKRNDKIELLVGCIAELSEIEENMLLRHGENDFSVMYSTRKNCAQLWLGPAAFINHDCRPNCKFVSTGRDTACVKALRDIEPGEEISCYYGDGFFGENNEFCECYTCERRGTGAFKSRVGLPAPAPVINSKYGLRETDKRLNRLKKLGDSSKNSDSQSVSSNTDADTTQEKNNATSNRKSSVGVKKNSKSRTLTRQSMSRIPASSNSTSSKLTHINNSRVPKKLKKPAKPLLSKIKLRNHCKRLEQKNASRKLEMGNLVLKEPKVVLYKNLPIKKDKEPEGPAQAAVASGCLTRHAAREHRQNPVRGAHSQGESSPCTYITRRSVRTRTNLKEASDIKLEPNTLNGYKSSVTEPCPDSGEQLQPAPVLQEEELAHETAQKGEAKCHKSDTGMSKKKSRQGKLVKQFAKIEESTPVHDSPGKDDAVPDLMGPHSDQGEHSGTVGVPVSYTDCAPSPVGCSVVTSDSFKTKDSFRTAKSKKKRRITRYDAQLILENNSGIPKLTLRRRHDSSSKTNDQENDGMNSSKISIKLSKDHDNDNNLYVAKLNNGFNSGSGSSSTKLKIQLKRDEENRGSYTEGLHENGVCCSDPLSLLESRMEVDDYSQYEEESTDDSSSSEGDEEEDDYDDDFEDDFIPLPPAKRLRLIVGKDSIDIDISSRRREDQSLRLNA
UniProt Q07001, sequence (whole entry, looked up): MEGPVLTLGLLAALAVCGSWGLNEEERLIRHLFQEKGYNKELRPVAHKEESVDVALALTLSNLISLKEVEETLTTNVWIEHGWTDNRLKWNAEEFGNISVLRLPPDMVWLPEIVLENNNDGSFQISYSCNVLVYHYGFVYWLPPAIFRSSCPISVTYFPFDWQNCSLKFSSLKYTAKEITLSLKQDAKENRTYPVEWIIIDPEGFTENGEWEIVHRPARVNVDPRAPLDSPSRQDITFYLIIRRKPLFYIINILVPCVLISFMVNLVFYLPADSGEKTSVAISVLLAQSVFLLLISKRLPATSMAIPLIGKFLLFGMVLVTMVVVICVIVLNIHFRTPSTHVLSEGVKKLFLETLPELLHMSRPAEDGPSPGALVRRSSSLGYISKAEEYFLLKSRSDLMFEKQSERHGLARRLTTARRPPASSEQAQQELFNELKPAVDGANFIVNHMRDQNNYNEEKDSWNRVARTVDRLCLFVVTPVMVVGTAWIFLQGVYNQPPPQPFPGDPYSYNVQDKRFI
UniProt P23975, sequence (whole entry, looked up): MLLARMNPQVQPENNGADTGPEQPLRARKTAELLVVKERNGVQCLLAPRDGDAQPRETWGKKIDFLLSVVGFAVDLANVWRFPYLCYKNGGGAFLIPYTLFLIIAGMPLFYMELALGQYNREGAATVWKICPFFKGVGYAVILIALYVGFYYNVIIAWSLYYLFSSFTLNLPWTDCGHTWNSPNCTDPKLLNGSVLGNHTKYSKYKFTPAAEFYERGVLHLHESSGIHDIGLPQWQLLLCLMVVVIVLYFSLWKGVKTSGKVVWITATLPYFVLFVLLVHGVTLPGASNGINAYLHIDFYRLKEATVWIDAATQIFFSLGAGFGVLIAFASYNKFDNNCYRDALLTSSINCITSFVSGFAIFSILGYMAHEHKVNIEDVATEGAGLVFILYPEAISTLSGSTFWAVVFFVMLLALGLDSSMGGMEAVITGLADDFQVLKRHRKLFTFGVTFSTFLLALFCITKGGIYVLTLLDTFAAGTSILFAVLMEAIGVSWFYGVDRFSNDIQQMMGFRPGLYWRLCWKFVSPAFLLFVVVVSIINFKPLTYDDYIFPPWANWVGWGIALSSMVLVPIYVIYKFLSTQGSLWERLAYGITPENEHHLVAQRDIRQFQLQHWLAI

CCCCCCCCCCCCNC(=S)NCCCC[C@H](NC(=O)OCc1ccccc1)C(=O)N[C@@H](Cc1ccc(O)cc1)C(=O)N[C@@H](CCCNC(=N)N)C(N)=O — inhibition (SIRT3; enzyme activity, inhibitor; 1 µM): 18%
c1ccc(OC[C@H]2CN(CCN3CCc4ccccc43)CCO2)nc1 — inhibition (HTR1E; radioligand binding; concentration not given, with: [3H]5-HT): -35.2%
O=C1c2sc(-c3ccc(N4CCC(CO)CC4)nc3F)nc2CCN1c1cccnc1 — inhibition (CHRNA1/CHRNG/CHRND (Homo sapiens, UniProt P02708+P07510+Q07001); radioligand binding, antagonist; 1 µM): -4%
O=C(O)CCNC(=S)NCCCC[C@H](NS(=O)(=O)c1cccc(F)c1)C(=O)N[C@@H](Cc1c[nH]c2ccccc12)C(=O)NC1CCC1 — inhibition (SIRT3; enzyme activity, inhibitor; 10 µM): 2%
CC(=O)N[C@H](C(=O)N[C@@H](CO)C(=O)N[C@@H](Cc1ccccc1)C(=O)N[C@H]1CCCCNC(=N)NCCCCNC(=N)NCCCC[C@@H](C(=O)N[C@@H](CC(C)C)C(=O)N[C@@H](CC(C)C)C(=O)N[C@@H](CO)C(=O)N2CCC[C@H]2C(N)=O)NC(=O)[C@H](Cc2c[nH]c3ccccc23)NC(=O)[C@H](Cc2ccc(O)cc2)NC(=O)[C@H](CCC(=O)O)NC1=O)[C@@H](C)O — inhibition (Protein Mdm4 (MDM4, Homo sapiens, UniProt O15151); protein-protein interaction, inhibitor, TR-FRET; 0.1 µM): ≥ 90%
CN(Cc1ccc(/C=C/C(=O)NO)cc1)CC12CC3CC(CC(C3)C1)C2 — inhibition (human VPAC1 receptor; agonist radioligand binding; 0.05 µM): -9%
Cc1ccc(CNC(=O)C(CCc2ccccc2)NC(=O)C(NC(=O)c2ccc(OCc3ccc(C(C)(C)C)cc3)cc2)C(C)O)cc1 (centres unmarked) — inhibition (F2; enzyme activity, inhibitor; 100 µM): 12%
COc1ccc(C(=O)Nc2c(-c3cccs3)nc3ccccn23)cc1 — inhibition (HTR1E; ligand displacement, radioligand; 10 µM): < 50%
Cc1ncsc1-c1ccc(C(C)NC(=O)C2CC(O)CN2C(=O)C(NC(=O)CCCCCCCCCCN2CCCC(Nc3ncc(Cl)c(Nc4ccccc4S(=O)(=O)C(C)C)n3)C2)C(C)(C)C)cc1 (centres unmarked) — log2 fold change (22Rv1; RNA-seq, measured: SPATA3-AS1; concentration not given; relative to: DMSO): -3.94
Cc1cccc(O[C@H]2CCC[C@@H](C(C)CNCc3ccncc3)C2)c1 (relative stereo) — inhibition (Protein kinase C beta type, isoform beta-I (PRKCB, Homo sapiens, UniProt P05771); kinome profiling; 10 µM): 1%
O=C(Nc1ccccc1)Nc1cccc(-c2ccccc2)c1 — inhibition (SRPK3; binding, KINOMEscan competitive binding; concentration not given): 34%
Cc1ccc(CN(C)C(=O)C(CCc2ccccc2)NC(=O)C(NC(=O)c2ccc(OCc3ccccc3)cc2)C(C)O)cc1 (centres unmarked) — inhibition (trypsin; enzyme activity, inhibitor; 100 µM): 2%
CC(=O)C12NC(C)(C)CC1(C)C(=O)C1=C2c2c(c3c4n2C(C)(C)CC2=C4C4(CC(C)(C)NC(C)(C4)C2=O)CC3(C)C)C(=O)C(C)(C)N1 (single isomer, unassigned; (-)) — inhibition (P2X purinoceptor 4 (P2RX4, Homo sapiens, UniProt Q99571); ion current, antagonist, whole-cell patch clamp; HEK293T; 10 µM): 7.7 ± 0.02%
O=C1c2sc(-c3ccc(N4CCC(F)C4)nc3F)nc2CCN1c1cccnc1 (centres unmarked) — inhibition (HTR1B; ligand displacement, radioligand; 1 µM): -6%
O=c1cc(-c2ccccc2)oc2c(Br)c(O)c(Br)c(O)c12 — inhibition (AMY2; enzyme activity, inhibitor; 50 µM, 30 min): 9.22%
O=C(CN1CCO[C@@H](COc2cccc(Cl)c2)C1)N1CCc2ccccc21 — inhibition (HTR1B; radioligand binding; concentration not given, with: [3H]5-CT): 10.7%
COC1CN([C@H]2CC[C@H]([C@@]3(C)Oc4c(Cl)cc(C(=O)NCc5c(SC)cc(C)[nH]c5=O)c(C)c4O3)CC2)C1 — log2 fold change (RNA-seq, measured: SCARF2; human, whole blood; dose not given, 24 h; relative to: pretreatment baseline): 1.1
O=C1CC(c2ccccc2)Oc2c(Br)c(O)c(Br)c(O)c21 (centres unmarked) — inhibition (AMY2; enzyme activity, inhibitor; 50 µM, with: CNP-G3 substrate): 51.1 ± 1.02%
COc1cc(OC)c(F)c(/C=C/c2cnc3ccn(S(=O)(=O)c4cn(CCF)cn4)c3n2)c1F — inhibition (Receptor-type tyrosine-protein kinase FLT3 (FLT3, Homo sapiens, UniProt P36888); 100 nM): 0.1%
CCOC(=O)C12CC1C(n1cnc3c(NC)nc(C#Cc4ccc(Br)s4)nc31)C(O)C2O (centres unmarked) — inhibition (Sodium-dependent noradrenaline transporter (SLC6A2, Homo sapiens, UniProt P23975); ligand displacement, radioligand; 10 µM): 57%
CN(C)C/C=C/C(=O)Nc1ccc2nc(NCCCCCN(C)C)nc(NCCCCCCN(C)C)c2c1 — inhibition (Histone-lysine N-methyltransferase KMT5B (KMT5B, Homo sapiens, UniProt Q4FZB7); enzyme activity, inhibitor, radiometric; 50 µM): 86%
Cc1ccc(CNC(=O)[C@H](CCc2ccccc2)NC(=O)[C@H](CC(=O)NCC(C)(C)C)NC(=O)c2ccc(OCc3ccccc3)cc2)cc1 — inhibition (chymotrypsin; enzyme activity, inhibitor; 100 µM): -4%
Cc1ccc(-c2nn(-c3ccc(S(C)(=O)=O)cc3)cc2/C=N/N=C2/NC(=O)CS2)cc1 — inhibition (Epidermal growth factor receptor (EGFR, Homo sapiens, UniProt P00533); kinase activity, inhibitor; 10 µM): 83.8%
N#Cc1c(Nc2ccccc2C(F)(F)F)s[nH]c1=O — inhibition (SIRT1; enzyme activity, inhibitor; 10 µM): 13%
CC(C)Cn1c(SCC(=O)N2CCc3ccccc3C2)nc2cc(Cl)ccc2c1=O — inhibition (HTR1E; ligand displacement, radioligand; 10 µM): 11%
CC(C)NC(=O)[C@H](CCc1ccccc1)NC(=O)[C@H](CC(=O)NCC(C)(C)C)NC(=O)CCc1ccccc1 — inhibition (F2; enzyme activity, inhibitor; 100 µM): 9%
C=C(NC(=O)[C@H](CCCCNC(=S)NCCCCCCCCCCCC)NC(=O)OCc1ccccc1)C(=O)N[C@@H](CCCNC(=N)N)C(N)=O — inhibition (SIRT1; enzyme activity, inhibitor; 1 µM): 77%
Cc1ccc(N(O)/N=N/c2ccc(S(=O)(=O)Nc3nccs3)cc2)cc1 — inhibition (AMY2; enzyme activity, inhibitor; 20 µg/mL): 5.26%
C[Si]1(C[C@H](CN)CC(=O)O)CCCC1 — inhibition (kainate receptor, rat; binding, radioligand binding; 70 µM, with: [3H]kainic acid): 2%
S=C(NCC1(N2CCCCC2)CCCCC1)NC1CC2CCC1C2 (centres unmarked) — inhibition (C-X-C chemokine receptor type 4 (CXCR4, Homo sapiens, UniProt P61073); arrestin recruitment, DiscoverX arrestin; 30 µM): 43%
CN(C)CCCCCCNc1nc(NCCCCCN(C)C)nc2ccc(NC(=O)CCl)cc12 — inhibition (Histone-lysine N-methyltransferase SETDB1, triple Tudor domain (SETDB1, Homo sapiens, UniProt Q15047); 3.704 µM): 79.3%
Cc1ccc(CNC(=O)[C@H](CCc2ccccc2)NC(=O)[C@H](CC(=O)NCC(C)(C)C)NC(=O)CCc2cccc(F)c2)cc1 — inhibition (trypsin; enzyme activity, inhibitor; 100 µM): -1%
C/C=C/C(=O)Nc1ccc2nc(NCCCCCN(C)C)nc(NCCCCCCN(C)C)c2c1 — inhibition (Histone-lysine N-methyltransferase SETDB1 (SETDB1, Homo sapiens, UniProt Q15047); enzyme activity, inhibitor, radiometric; 10 µM): -4%
Cc1ccc(CNC(=O)[C@H](CCc2ccccc2)NC(=O)[C@H](CCc2ccccc2)NC(=O)Cc2cccc(Oc3ccccc3)c2)cc1 — inhibition (chymotrypsin; enzyme activity, inhibitor; 100 µM): -3%
N#Cc1ccc(NC(=O)Nc2ccccc2-c2ccccc2)cc1 — inhibition (SRPK3; binding, KINOMEscan competitive binding; concentration not given): 32%
CC(=S)NCCCC[C@H](NC(=O)OCc1ccccc1)C(=O)N[C@@H](Cc1c[nH]c2ccccc12)C(=O)NC(C)C — inhibition (SIRT3; enzyme activity, inhibitor; 10 µM): 15%
C[Si](C)(C)C[C@H](CN)CC(=O)O — inhibition (Somatostatin receptor type 3 (SSTR3, Homo sapiens, UniProt P32745); ligand displacement, radioligand; 250 µM): 0%
C=CC(=O)Nc1cccc(Cn2ncc3cnc(Nc4cnn(CCOC)c4)nc32)c1 — percent of control (ACVR2A human; binding, KINOMEscan; 100 nM; lower = stronger binding): 98%

A few entries again:
CN(C)C/C=C/C(=O)Nc1ccc2nc(NCCCCCN(C)C)nc(NCCCCCCN(C)C)c2c1 — inhibition (Histone-lysine N-methyltransferase KMT5B (KMT5B, Homo sapiens, UniProt Q4FZB7); enzyme activity, inhibitor, radiometric; 50 µM): 86%
CC(C)NC(=O)[C@H](CCc1ccccc1)NC(=O)[C@H](CC(=O)NCC(C)(C)C)NC(=O)CCc1ccccc1 — inhibition (F2; enzyme activity, inhibitor; 100 µM): 9%
